Experimental data pooled from the literature.
Lines come from different studies, so protocols differ. Values joined by “and” are separate records of one study, mostly repeats; a detail may differ. ± marks the error that the study gave. ≈ marks a conversion by molar mass, not a printed value.

| Compound | cell line | test | system | conditions | scale | quantity | value |
| --- | --- | --- | --- | --- | --- | --- | --- |
| Cc1cc(NS(=O)(=O)c2ccc(NC(=O)/C(C#N)=C/c3ccc(N4CCCCC4)cc3)cc2)no1 | HCT-116 | cytotoxicity, MTT | – | – | baseline: HSF over HCT-116 IC50 | selectivity index | > 13.8 |
| CN1CCN(C2(CNC3CCN(c4cccc(-c5cc6cc(F)ccc6[nH]5)c4)CC3)CCC2)CC1 | BT-549 | – | – | – | – | GI50 | 1720 nM |
| C[C@]12CC[C@H](O)C[C@H]1CC[C@@H]1[C@@H]2CC[C@]2(C)[C@@H](c3ccc(=O)oc3)CC[C@]12O | MCF7 | RT-qPCR, refers to: GREB1 | – | 50 nM, 48 h, without estradiol, unit not given | baseline: untreated | mRNA level | 0.206 and 0.173 and 0.174 |
| CCCCCCCCCCCCN1/C(=C\C=C\C2=[N+](CCCCCCCCCCCC)c3ccccc3C2(C)C)C(C)(C)c2ccccc21.[O-][Cl+3]([O-])([O-])[O-] | mouse erythrocytes | – | – | 1 h, 37 °C, 25 µM lipids | – | labelling efficiency | 100% |
| Cc1nn(-c2nc3ccc(Cl)c(Cl)c3[nH]2)c(O)c1C1OC(=O)c2ccccc21 (stereo not shown) | RAW-ISG | CCK-8 | – | 200 µM | – | viability | 8.33% and 14.1% and 13.4% and 14.6% |
| C=C(C)[C@@H]1CCC(C)=C[C@H]1c1c(O)cc(CCCCC)cc1O | human sperm | modified Kremer test | – | 10 µM, 1% methylcellulose, 1 cm | baseline: vehicle | sperm penetration | 1.33 ± 0.6 fold |
| Cc1cccc(-c2cccc(C)n2)n1.Cc1cccc(-c2cccc(C)n2)n1.F[P-](F)(F)(F)(F)F.F[P-](F)(F)(F)(F)F.[Ru+2].c1ccc2cc(-c3nc4c5cccnc5c5ncccc5c4[nH]3)ccc2c1 | SK-MEL-28 | cell viability | – | dark, 1% O2 | – | EC50 | 72200 ± 3800 nM |
| Oc1cc(Cl)ccc1Oc1ccc(Cl)cc1Cl | HepG2 | high content imaging, refers to: cell count | – | 24 h, representative mode | – | point of departure | 18.6 µM |
| C/C=C(/C)C(=O)O[C@H]1C(C)=C2[C@H]([C@@H]1OC(=O)CCCCCCC)[C@@](C)(OC(C)=O)C[C@H](OC(=O)CCC)[C@@]1(O)[C@H]2OC(=O)[C@@]1(C)O | HEK293 | protein secretion | – | concentration not given, unit not given | baseline: mock | secreted Gaussia luciferase | 0.239 |
| CC(C)=CCc1c(O)cc(O)cc1-c1cc2ccc(O)c(CC=C(C)C)c2o1 | MCF7 | cell growth, MTT | – | 3.6 µg/mL, 48 h | – | cell survival | 93.94 ± 0.82% |
| COc1c(C)c2c(c(O)c1C/C=C(\C)CCC(=O)O)C(=O)OC2 | SK-N-SH | cell proliferation | – | – | – | IC50 | 617 nM |
| Cc1ccc2c(c1)C(=O)C1(O)CCN(c3ccccc3)C1=N2 (stereo not shown) | COS-7 | cytokinesis | – | 24 h | – | EC50 | 1900 nM |
| Oc1cc(O)cc(-c2cc3ccc(O)cc3o2)c1 | 3T3 | cell growth, MTT | – | 100 µg/mL, 48 h | – | cell survival | 33.6 ± 0.34% |
| COc1cc(CCC[P+](c2ccccc2)(c2ccccc2)c2ccccc2)c(OC)c2c1OCO2.[I-] | Hs-578T | SRB | – | – | – | LC50 | > -4 log M |
| C[C@H]1[C@H](C)CC[C@]2(C(=O)O)CC[C@]3(C)C(=CC[C@@H]4[C@@]5(C)CC[C@H](O)C(C)(C)[C@@H]5CC[C@]43C)[C@H]12 | 3T3 | cell growth, MTT | – | 50 µg/mL, 48 h | – | cell survival | 45.86 ± 0.34% |
| Nc1ncnc2c1ncn2[C@@H]1O[C@@H]2COP(=O)(O)O[C@H]3[C@@H](O)[C@H](n4cnc5c(=O)[nH]cnc54)O[C@@H]3COP(=O)(O)O[C@H]2[C@H]1O | HFF-1 | RNA sequencing, refers to: Reactome R-HSA-8874081 | – | downregulated pathway | baseline: Zika virus alone | pathway fold enrichment | 11.9 |
| COc1ccc2c(c1)[nH]c1c(C)nccc12 | DU-145 | bisulfite pyrosequencing, refers to: RASSF1A promoter CpG site 31 | – | 10 µM, 16 h | – | DNA methylation | 95.4% |

| Compound | cell line | test | system | conditions | scale | quantity | value |
| --- | --- | --- | --- | --- | --- | --- | --- |
| CN(C)c1cc(NC(=O)CNC(C)(C)C)c(O)c2c1C[C@H]1C[C@H]3[C@H](N(C)C)C(O)=C(C(N)=O)C(=O)[C@@]3(O)C(O)=C1C2=O | Escherichia coli DH5α expressing KPC-25 | bacterial growth | – | – | – | MIC | 0.125 µg/mL (≈ 0.213 µM) |
| Nc1ncnc2c1ncn2[C@@H]1O[C@H](COP(=O)(O)OP(=O)(O)OP(=O)(O)O)[C@@H](O)[C@H]1O | N2a | fluorescence signal increase, stimulant, live-cell confocal microscopy | – | 300 µM | – | time to maximum ΔF/F0 | ~8 min |
| COc1ccc([C@H]2c3[nH]c4ccc(Cl)cc4c3CCN2C(=O)Oc2ccc(Cl)cc2)cc1 | CD19+ B cells with PBMC | cytokine secretion, refers to: sIgG | – | 0.1 µM, 144 h, BioMAP BT system | – | inhibition | 98% |
| COc1cnc(OC)n2nc(NS(=O)(=O)c3c(OCC(F)F)cccc3C(F)(F)F)nc12 | HEK293T | cytotoxicity, CCK-8 | – | 6.25 µM, 72 h | – | inhibition | 0.1 ± 0.34% |
| Oc1ccc(C(c2ccc(O)cc2)(C(F)(F)F)C(F)(F)F)cc1 | HepG2 spheroids | Hoechst flow cytometry | – | 10 µM, 96 h | – | G2 phase cells | 20.1 ± 8.63% |
| CCN(CC)c1ccc(C=NNC(=O)CSc2nc3ccccc3c(=O)n2Cc2ccc(S(N)(=O)=O)cc2)c(O)c1 | Hs-578T | NCI five-dose screen | – | – | – | CC50 | > 100000 nM |
| Nc1ncc(-c2nc(N3CCOCC3)nc(N3CCOCC3)n2)c(C(F)F)n1 | SNU-C2B | – | – | 72 h | – | GI50 | 607 nM |
| CC(C)N1CCC(NC2CCN(c3cccc(-c4cc5cc(F)ccc5[nH]4)c3)CC2)CC1 | SK-MEL-2 | – | – | – | – | CC50 | 7250 nM |
| CC(=O)c1ccc(C(O)C(C)C)cc1 (racemic) | HEK-293T | – | – | 250 µM, 48 h | – | cells killed | 50% |
| Cc1cc(C(C)(C)c2ccc(O)c(C)c2)ccc1O | HepG2 spheroids | Hoechst flow cytometry | – | 10 µM, 24 h | – | G1 phase cells | 72.7 ± 3.04% |
| COc1c(CCC[P+](c2ccccc2)(c2ccccc2)c2ccccc2)cc2c(c1OC)OCO2.[I-] | MDA-MB-435 | SRB | – | – | – | GI50 | -6.34 log M |
| Cn1cncc1C1=CN(c2ncnc3[nH]cnc23)CCS1 | T29 | – | – | colon cancer | – | CC50 | > 200000 nM |
| CN1CCN(S(=O)(=O)c2cc([N+](=O)[O-])ccc2N(CCOS(C)(=O)=O)CCOS(C)(=O)=O)CC1 | sample A B-ALL PDX cells | cell viability | ex vivo | 48 h, together with: AKR1C3 inhibitor | baseline: with inhibitor over alone | IC50 fold change | 57.7 |
| CC(c1ccccc1)(c1ccc(O)cc1)c1ccc(O)cc1 | HepG2 spheroids | Hoechst flow cytometry | – | 0.01 µM, 96 h | – | S phase cells | 8.31 ± 1.06% |
| O=C1CCP(=S)(c2ccccc2)CC1 | PC-3 | trypan blue | – | IC50, 72 h | baseline: untreated | reduction of cell number | 98% |
| Oc1ccc(C2(c3ccc(O)cc3)c3ccccc3-c3ccccc32)cc1 | HepG2 spheroids | Hoechst flow cytometry | – | 1 µM, 96 h | – | S phase cells | 9.03 ± 1.17% |
| Cn1cc2cc(C(F)(F)c3nnc4ccc(-c5cnn(C6CC6)c5)nn34)c(F)cc2n1 | MKN-45 | annexin V/PI flow cytometry | – | 200 nM, 48 h | – | early apoptotic cells | 14.9% and 21.6% and 15.2% |
